Measured values gathered from unrelated publications.
Protocols differ between the studies behind these lines. Several values in a cell are separate wells, animals, samples, runs or records.
USP7: Ubiquitin carboxyl-terminal hydrolase 7 (USP7, Homo sapiens, UniProt Q93009)
Sequence of UniProt Q93009 (whole entry, looked up): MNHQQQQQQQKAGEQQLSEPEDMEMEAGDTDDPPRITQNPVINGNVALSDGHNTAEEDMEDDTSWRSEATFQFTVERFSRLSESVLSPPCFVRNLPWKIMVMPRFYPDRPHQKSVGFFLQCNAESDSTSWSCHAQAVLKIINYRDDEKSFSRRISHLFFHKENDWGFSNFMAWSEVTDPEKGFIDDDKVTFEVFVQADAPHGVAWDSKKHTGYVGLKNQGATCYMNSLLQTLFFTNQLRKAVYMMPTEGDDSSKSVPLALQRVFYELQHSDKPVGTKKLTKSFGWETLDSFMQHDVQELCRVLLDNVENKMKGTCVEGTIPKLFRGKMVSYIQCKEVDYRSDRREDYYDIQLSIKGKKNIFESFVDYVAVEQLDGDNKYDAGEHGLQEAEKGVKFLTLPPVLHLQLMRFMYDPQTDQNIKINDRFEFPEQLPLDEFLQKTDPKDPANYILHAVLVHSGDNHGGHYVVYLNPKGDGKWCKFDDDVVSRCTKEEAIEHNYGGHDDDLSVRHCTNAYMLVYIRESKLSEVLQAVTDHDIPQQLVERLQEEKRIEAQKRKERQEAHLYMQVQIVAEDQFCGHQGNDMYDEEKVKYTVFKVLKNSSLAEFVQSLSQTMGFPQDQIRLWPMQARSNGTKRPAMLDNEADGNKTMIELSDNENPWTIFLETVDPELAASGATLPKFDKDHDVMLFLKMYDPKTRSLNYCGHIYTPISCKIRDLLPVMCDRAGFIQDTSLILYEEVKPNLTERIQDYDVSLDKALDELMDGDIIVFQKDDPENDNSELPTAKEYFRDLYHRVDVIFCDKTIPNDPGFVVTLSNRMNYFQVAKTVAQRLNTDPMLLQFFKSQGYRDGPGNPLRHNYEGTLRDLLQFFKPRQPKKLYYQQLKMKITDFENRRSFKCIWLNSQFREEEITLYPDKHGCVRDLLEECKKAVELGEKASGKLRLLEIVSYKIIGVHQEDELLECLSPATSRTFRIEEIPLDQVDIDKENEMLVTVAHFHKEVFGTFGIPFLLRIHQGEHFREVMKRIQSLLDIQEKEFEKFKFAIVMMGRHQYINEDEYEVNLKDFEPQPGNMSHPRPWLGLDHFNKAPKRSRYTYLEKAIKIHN
NEU1: Sialidase-1 (NEU1, Homo sapiens, UniProt Q99519)
HLA class I histocompatibility antigen, A alpha chain: HLA class I histocompatibility antigen, A alpha chain (Homo sapiens, UniProt P04439)
Proteasome component C5/PSMB5 chymotrypsin-like site: Proteasome component C5/PSMB5, chymotrypsin-like site (Homo sapiens, UniProt P20618+P28074)
Sequence of UniProt P28074 (whole entry, looked up): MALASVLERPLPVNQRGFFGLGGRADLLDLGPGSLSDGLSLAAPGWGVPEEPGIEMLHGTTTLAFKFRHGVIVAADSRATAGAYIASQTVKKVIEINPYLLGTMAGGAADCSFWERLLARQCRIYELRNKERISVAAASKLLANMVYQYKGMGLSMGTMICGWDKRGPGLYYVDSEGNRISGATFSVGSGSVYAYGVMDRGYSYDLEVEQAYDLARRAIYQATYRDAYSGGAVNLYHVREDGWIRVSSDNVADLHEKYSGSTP
Sequence of UniProt P20618 (whole entry, looked up): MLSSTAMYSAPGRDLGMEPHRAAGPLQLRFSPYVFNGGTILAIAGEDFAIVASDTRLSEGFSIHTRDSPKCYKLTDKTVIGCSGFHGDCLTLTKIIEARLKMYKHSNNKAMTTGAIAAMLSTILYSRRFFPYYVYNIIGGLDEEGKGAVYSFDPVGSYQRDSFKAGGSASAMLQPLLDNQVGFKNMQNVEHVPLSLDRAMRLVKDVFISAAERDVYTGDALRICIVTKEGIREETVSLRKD
4'-phosphopantetheinyl transferase PptT: 4'-phosphopantetheinyl transferase PptT (Mycobacterium tuberculosis, UniProt O33336)
Sequence of UniProt O33336 (whole entry, looked up): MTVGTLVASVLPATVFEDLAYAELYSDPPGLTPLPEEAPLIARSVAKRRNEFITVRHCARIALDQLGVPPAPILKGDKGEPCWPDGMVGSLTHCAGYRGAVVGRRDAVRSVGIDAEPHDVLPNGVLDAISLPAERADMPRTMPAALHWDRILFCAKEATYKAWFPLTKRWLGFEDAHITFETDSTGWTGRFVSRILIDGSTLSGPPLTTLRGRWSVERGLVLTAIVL
CTSB: Cathepsin B (CTSB, Homo sapiens, UniProt P07858)
Sequence of UniProt O42275 (whole entry, looked up): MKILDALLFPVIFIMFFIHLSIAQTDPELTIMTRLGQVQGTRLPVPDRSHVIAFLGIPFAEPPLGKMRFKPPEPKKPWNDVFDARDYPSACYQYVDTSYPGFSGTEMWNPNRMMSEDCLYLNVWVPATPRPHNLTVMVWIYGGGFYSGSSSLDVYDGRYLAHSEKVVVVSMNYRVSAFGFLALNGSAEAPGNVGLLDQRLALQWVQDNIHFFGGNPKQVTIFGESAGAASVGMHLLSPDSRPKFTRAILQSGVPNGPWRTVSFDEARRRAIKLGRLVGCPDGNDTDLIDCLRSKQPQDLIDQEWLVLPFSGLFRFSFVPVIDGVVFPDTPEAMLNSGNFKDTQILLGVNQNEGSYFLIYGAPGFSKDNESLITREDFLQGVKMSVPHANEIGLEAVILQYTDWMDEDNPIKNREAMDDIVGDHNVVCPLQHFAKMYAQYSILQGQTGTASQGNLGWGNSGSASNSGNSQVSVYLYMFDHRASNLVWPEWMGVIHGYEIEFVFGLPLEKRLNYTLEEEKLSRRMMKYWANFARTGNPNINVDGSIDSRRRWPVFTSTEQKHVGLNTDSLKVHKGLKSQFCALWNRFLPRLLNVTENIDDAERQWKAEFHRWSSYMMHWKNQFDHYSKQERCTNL
Sequence of UniProt Q92499 (whole entry, looked up): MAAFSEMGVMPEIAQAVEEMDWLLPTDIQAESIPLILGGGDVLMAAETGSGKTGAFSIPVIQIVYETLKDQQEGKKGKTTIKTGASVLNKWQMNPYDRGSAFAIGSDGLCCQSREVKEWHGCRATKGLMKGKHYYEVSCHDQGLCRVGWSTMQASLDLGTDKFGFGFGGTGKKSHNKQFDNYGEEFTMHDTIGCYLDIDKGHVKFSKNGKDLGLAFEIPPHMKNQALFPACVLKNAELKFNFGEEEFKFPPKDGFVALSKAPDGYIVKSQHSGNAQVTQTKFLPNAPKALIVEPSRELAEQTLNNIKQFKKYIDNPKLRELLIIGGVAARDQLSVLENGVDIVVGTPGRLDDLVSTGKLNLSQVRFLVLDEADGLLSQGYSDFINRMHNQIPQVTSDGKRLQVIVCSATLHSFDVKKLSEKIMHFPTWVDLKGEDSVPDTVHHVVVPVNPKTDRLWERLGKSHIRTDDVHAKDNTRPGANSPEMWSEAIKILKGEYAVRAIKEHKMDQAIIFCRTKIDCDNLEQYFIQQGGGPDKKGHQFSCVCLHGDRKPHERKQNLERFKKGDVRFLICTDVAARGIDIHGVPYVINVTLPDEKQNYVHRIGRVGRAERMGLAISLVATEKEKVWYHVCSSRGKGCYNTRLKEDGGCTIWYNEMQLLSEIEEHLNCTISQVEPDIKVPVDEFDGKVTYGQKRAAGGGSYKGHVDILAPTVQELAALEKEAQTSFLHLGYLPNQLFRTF
Sequence of UniProt P27487 (whole entry, looked up): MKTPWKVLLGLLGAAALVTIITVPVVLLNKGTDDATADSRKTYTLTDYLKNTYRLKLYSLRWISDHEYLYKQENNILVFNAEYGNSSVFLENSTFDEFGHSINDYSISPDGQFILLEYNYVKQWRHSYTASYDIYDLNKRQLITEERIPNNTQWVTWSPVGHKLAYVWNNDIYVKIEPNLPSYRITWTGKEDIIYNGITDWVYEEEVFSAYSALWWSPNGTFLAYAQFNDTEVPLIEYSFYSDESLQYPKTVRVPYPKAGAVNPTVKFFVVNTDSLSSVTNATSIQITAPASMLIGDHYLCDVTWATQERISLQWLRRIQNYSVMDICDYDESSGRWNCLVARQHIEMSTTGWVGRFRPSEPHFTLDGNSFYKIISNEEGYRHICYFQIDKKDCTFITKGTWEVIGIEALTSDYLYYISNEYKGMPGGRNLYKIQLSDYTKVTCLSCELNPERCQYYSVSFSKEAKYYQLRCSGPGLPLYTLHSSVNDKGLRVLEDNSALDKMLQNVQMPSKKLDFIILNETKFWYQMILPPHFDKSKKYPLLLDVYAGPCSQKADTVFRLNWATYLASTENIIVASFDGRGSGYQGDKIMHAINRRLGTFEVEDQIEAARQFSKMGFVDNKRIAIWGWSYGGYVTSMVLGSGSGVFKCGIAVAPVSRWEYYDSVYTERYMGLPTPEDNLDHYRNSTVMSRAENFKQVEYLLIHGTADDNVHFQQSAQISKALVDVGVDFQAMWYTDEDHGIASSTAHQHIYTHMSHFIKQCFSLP
Sequence of UniProt P52895 (whole entry, looked up): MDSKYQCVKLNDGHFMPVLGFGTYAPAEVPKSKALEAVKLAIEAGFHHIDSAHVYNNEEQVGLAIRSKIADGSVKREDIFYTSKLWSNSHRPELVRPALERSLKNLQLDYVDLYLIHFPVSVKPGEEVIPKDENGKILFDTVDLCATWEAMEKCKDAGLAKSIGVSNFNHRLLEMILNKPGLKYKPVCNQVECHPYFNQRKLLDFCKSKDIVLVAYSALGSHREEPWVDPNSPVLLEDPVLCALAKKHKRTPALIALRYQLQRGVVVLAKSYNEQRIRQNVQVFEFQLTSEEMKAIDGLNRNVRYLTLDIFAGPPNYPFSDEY
Sequence of UniProt P08311 (whole entry, looked up): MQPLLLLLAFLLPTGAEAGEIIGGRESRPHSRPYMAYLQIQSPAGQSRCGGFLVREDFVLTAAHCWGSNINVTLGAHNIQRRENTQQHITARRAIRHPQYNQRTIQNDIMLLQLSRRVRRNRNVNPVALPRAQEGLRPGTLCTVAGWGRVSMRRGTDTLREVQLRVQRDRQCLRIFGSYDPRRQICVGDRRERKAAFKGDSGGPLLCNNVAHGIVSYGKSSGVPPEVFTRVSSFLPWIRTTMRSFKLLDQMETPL
Sequence of UniProt P30575 (whole entry, looked up): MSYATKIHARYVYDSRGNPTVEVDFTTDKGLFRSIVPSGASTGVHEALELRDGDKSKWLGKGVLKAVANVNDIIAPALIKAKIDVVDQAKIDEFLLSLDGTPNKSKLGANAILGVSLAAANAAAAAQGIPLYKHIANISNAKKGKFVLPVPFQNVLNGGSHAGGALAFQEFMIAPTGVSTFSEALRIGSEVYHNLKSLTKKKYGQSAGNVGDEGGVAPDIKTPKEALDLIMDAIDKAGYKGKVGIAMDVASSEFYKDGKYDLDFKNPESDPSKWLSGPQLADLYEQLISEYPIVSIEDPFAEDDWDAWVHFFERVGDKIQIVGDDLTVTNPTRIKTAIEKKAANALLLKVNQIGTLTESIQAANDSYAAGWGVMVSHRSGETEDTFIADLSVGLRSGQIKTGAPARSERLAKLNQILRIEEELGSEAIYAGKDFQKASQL

[2H]c1c([2H])c([C@]2([2H])CCCN2C(=O)C(C)(C)Oc2ccc3cn[nH]c3c2)c([2H])c([2H])c1C([2H])([2H])[2H]
remaining binding (Serine/threonine-protein kinase Nek11 (NEK11, Homo sapiens, UniProt Q8NG66); binding, competition with immobilised ligand; 1 µM): 90%

CC(O)(P(=O)(O)O)P(=O)(O)O
IC50 (ENO1 (Candida albicans, UniProt P30575); enzyme activity, inhibitor, absorbance): > 50000 nM

O=C(C[C@@H](C(F)F)n1ccc(F)n1)N1CCC(O)(Cn2cnc3c(cnn3-c3ccc(F)cc3)c2=O)CC1
IC50 (USP7; enzyme activity, inhibitor): 110 nM

CCN[C@H]1[C@H]([C@H](O)[C@H](O)CO)OC(C(=O)O)=C[C@@H]1O
IC50 (NEU1; enzyme activity, inhibitor): 91000 nM

CSCC[C@H](NC(=O)[C@H](CO)NC(=O)[C@H](Cc1c[nH]c2ccccc12)NC(=O)[C@@H]1CCCN1C(=O)[C@H](CCCCN)NC(=O)[C@H](CCC(N)=O)NC(=O)[C@H](Cc1ccccc1)NC(=O)[C@H](CCSC)NC(=O)[C@@H](N)CCCNC(=N)N)C(=O)O
IC50 (HLA class I histocompatibility antigen, A alpha chain; cell-free assay): 1460 nM

CC(C)C[C@H](NC(=O)[C@H](Cc1ccccc1)NC(=O)[C@H](C)NC(=O)OCc1ccccc1)C(=O)C(=O)Nc1ccccc1
IC50 (Proteasome component C5/PSMB5 chymotrypsin-like site; enzyme activity in cells, inhibitor): 1950 nM

CC(C)CCN[C@H]1[C@H]([C@H](O)[C@H](O)CO)OC(C(=O)O)=C[C@@H]1O
IC50 (NEU1; enzyme activity, inhibitor): > 500000 nM

CCC(C(=O)Nc1cc(NC2CNC2)ccc1C)n1cccc2nc(SCc3ccc(F)cc3)nc1-2 (centres unmarked)
IC50 (USP7; enzyme activity, inhibitor): > 100000 nM

CC(C)[C@H](N)C(=O)N1CCC[C@H]1C(=O)N[C@H](C(=O)N1CCC[C@H]1C(=O)N[C@@H](Cc1ccccc1)C(=O)O)C(C)C
IC50 (Dipeptidyl peptidase 4 (DPP4, Homo sapiens, UniProt P27487); enzyme activity, inhibitor, absorbance; pH 8): 81900 nM

CSCC[C@H](NC(=O)[C@H](C)N)C(=O)N[C@@H](Cc1ccc(O)cc1)C(=O)NCC(=O)N[C@@H](CCCNC(=N)N)C(=O)N[C@@H](CO)C(=O)N[C@@H](CC(C)C)C(=O)N[C@@H](CCC(N)=O)C(=O)N[C@@H](Cc1ccccc1)C(=O)O
IC50 (HLA class I histocompatibility antigen, A alpha chain; cell-free assay): 31 nM

CC(=O)N(C)[C@H]1[C@H]([C@H](O)[C@H](O)CO)OC(C(=O)O)=C[C@@H]1O
IC50 (NEU1; enzyme activity, inhibitor): > 500000 nM

CC(C)[C@H](NC(=O)[C@@H](N)CCCCN)C(=O)N[C@@H](CC(=O)O)C(=O)N1CCC[C@H]1C(=O)N[C@@H](CCCCN)C(=O)N[C@@H](Cc1ccccc1)C(=O)N[C@H](C(=O)N[C@@H](CO)C(=O)N[C@@H](Cc1ccccc1)C(=O)O)[C@@H](C)O
IC50 (HLA class I histocompatibility antigen, A alpha chain; cell-free assay): 19700 nM

O=c1c2cc(Cl)c(CF)cc2[nH]c(=S)n1Cc1cccnc1
IC50 (4'-phosphopantetheinyl transferase PptT; enzyme activity, inhibitor, FP): 1770 nM

CC[C@H](C)[C@H](NC(=O)[C@@H]1CCCN1C(=O)[C@H](CO)NC(=O)[C@H](CCSC)NC(=O)[C@H](CCC(N)=O)NC(=O)[C@@H](N)CCCCN)C(=O)N[C@@H](Cc1c[nH]c2ccccc12)C(=O)N[C@H](C(=O)N[C@@H](Cc1ccc(O)cc1)C(=O)O)[C@@H](C)O
IC50 (HLA class I histocompatibility antigen, A alpha chain; cell-free assay): 669 nM

COc1cc(NC(=O)C(=O)[C@H](CC(C)C)NC(=O)[C@H](CC(C)C)NC(=O)[C@H](CC(C)C)NC(=O)c2ccc(-c3ccc(C(C)=O)cc3)o2)cc(OC)c1
IC50 (Proteasome component C5/PSMB5 chymotrypsin-like site; enzyme activity in cells, inhibitor): 32.4 nM

O=C(N1CCC2(CC1)C[C@H](CN1CCCCS1(=O)=O)CCO2)C1(c2ccccc2)CCCC1
IC50 (ATP-dependent RNA helicase DDX1 (Homo sapiens, UniProt Q92499); ATPase activity, inhibitor): > 50000 nM

CSCC[C@H](NC(=O)[C@@H](N)CCCCN)C(=O)N[C@@H](Cc1ccc(O)cc1)C(=O)N1CCC[C@H]1C(=O)N[C@H](C(=O)NCC(=O)N[C@@H](Cc1ccccc1)C(=O)N[C@H](C(=O)N[C@@H](Cc1ccc(O)cc1)C(=O)O)[C@@H](C)O)[C@@H](C)O
IC50 (HLA class I histocompatibility antigen, A alpha chain; cell-free assay): 17 nM

CC(C)C[C@H](NC(=O)[C@@H](NC(=O)N[C@@H](Cc1ccccc1)C(=O)O)[C@@H]1CCN=C(N)N1)C(=O)N[C@H](C=O)Cc1ccccc1
IC50 (Cathepsin G (CTSG, Homo sapiens, UniProt P08311); enzyme activity, inhibitor): 4250 nM

O=c1c(O)c(-c2ccc(O[C@@H]3O[C@H](CO)[C@@H](O)[C@H](O)[C@H]3O)c(O)c2)oc2cc(O)cc(O)c12
IC50 (Acetylcholinesterase (ache, Electrophorus electricus, UniProt O42275); enzyme activity, inhibitor, Ellman): 4.44 nM and 7.88 nM

N#Cc1ccc2[nH]c(=S)n(Cc3cccnc3)c(=O)c2c1
IC50 (4'-phosphopantetheinyl transferase PptT; enzyme activity, inhibitor, FP): 290 nM

CC(C)[C@H](NC(=O)[C@H](Cc1c[nH]cn1)NC(=O)[C@@H]1CCCN1C(=O)[C@H](Cc1ccccc1)NC(=O)[C@H](C)NC(=O)[C@@H](N)Cc1c[nH]cn1)C(=O)N[C@H](C(=O)N[C@H](C(=O)N[C@@H](Cc1ccccc1)C(=O)O)[C@@H](C)O)C(C)C
IC50 (HLA class I histocompatibility antigen, A alpha chain; cell-free assay): 13600 nM

O=C(O)C(C(F)(F)F)C(F)(F)F
IC50 (Aldo-keto reductase family 1 member C2 (AKR1C2, Homo sapiens, UniProt P52895); enzyme activity, inhibitor, fluorescence): > 50000 nM

CN(C)C(=O)COC(=O)Cc1ccc(OC(=O)c2ccc(NC(=N)N)cc2)cc1
IC50 (Serine protease 1 (PRSS1, Homo sapiens, UniProt P07477); enzyme activity, inhibitor): 71.9 nM

CC(C)(C)CN[C@H]1[C@H]([C@H](O)[C@H](O)CO)OC(C(=O)O)=C[C@@H]1O
IC50 (NEU1; enzyme activity, inhibitor): 115000 nM

CCC(C(=O)Nc1cc(NC2CCOCC2)ccc1C)n1cc(Br)cc2nc(SCc3ccc(F)cc3)nc1-2 (centres unmarked)
IC50 (CTSB; enzyme activity, inhibitor): > 100000 nM

CC(=O)c1ccc(-c2ccc(C(=O)N[C@@H](CC(C)C)C(=O)N[C@@H](CC(C)C)C(=O)N[C@@H](CC(C)C)C(=O)C(=O)Nc3cccc(C(C)=O)c3)o2)cc1
IC50 (Proteasome component C5/PSMB5 chymotrypsin-like site; enzyme activity in cells, inhibitor): 24.5 nM

CN1C[C@@H]2C[C@H]1CN2c1nccc(-c2cnn3ncccc23)n1
IC50 (Dual specificity tyrosine-phosphorylation-regulated kinase 1A (DYRK1A, Homo sapiens, UniProt Q13627); cell-free assay, TR-FRET): 6170 nM

CCC(C(=O)Nc1cc(NC2COC2)ccc1C)n1cc(Br)cc2nc(SCc3ccc(F)cc3)nc1-2 (centres unmarked)
IC50 (USP7; enzyme activity, inhibitor): > 100000 nM

CSCC[C@H](NC(=O)[C@@H](NC(=O)[C@H](CC(C)C)NC(=O)[C@@H](NC(=O)[C@H](CCCCN)NC(=O)[C@H](CC(N)=O)NC(=O)[C@H](Cc1ccc(O)cc1)NC(=O)[C@H](CCSC)NC(=O)[C@@H](N)CCCNC(=N)N)[C@@H](C)O)[C@@H](C)O)C(=O)O
IC50 (HLA class I histocompatibility antigen, A alpha chain; cell-free assay): 48 nM

Cc1nn(C)cc1-c1nc2c(N3CCN(Cc4ccc(Cl)cc4)CC3)c(Cl)cnc2[nH]1
remaining binding (Bone morphogenetic protein receptor type-1A (BMPR1A, Homo sapiens, UniProt P36894); binding, competition with immobilised ligand; 1 µM): 62%

COc1ncccc1-c1cnn2ccc(N3CCN(C(=O)OC(C)C)CC3)nc12
remaining binding (Serine/threonine-protein kinase mTOR (MTOR, Homo sapiens, UniProt P42345); binding, competition with immobilised ligand; 1 µM): 100%

Nc1ncc(-c2nc(N3CCOCC3)nc(N3CCOCC3)n2)c(C(F)F)n1
remaining binding (Phosphatidylinositol 4,5-bisphosphate 3-kinase catalytic subunit alpha isoform (PIK3CA, Homo sapiens, UniProt P42336, I800L); binding, competition with immobilised ligand; 10 µM): 0.05%

CC(C)C[C@H](NC(=O)OCc1ccccc1)C(=O)N[C@@H](Cc1ccccc1)C(=O)N[C@@H](CC(C)C)C(=O)C(=O)Nc1ccccc1
IC50 (Proteasome component C5/PSMB5 chymotrypsin-like site; enzyme activity in cells, inhibitor): 234 nM

CCC(C(=O)Nc1cc(NC2CCNCC2)ccc1C)n1cc(Cl)cc2nc(SCc3ccc(F)cc3)nc1-2 (centres unmarked)
IC50 (CTSB; enzyme activity, inhibitor): > 100000 nM

CSCC[C@H](NC(=O)[C@@H](N)Cc1c[nH]cn1)C(=O)N[C@@H](Cc1ccc(O)cc1)C(=O)N1CCC[C@H]1C(=O)N[C@@H](CC(N)=O)C(=O)N[C@@H](Cc1ccccc1)C(=O)N[C@H](C(=O)N[C@@H](CCC(N)=O)C(=O)N[C@@H](Cc1ccccc1)C(=O)O)C(C)C
IC50 (HLA class I histocompatibility antigen, A alpha chain; cell-free assay): 709 nM

Repeated from above:
CC(C)[C@H](N)C(=O)N1CCC[C@H]1C(=O)N[C@H](C(=O)N1CCC[C@H]1C(=O)N[C@@H](Cc1ccccc1)C(=O)O)C(C)C
IC50 (Dipeptidyl peptidase 4 (DPP4, Homo sapiens, UniProt P27487); enzyme activity, inhibitor, absorbance; pH 8): 81900 nM

O=C(N1CCC2(CC1)C[C@H](CN1CCCCS1(=O)=O)CCO2)C1(c2ccccc2)CCCC1
IC50 (ATP-dependent RNA helicase DDX1 (Homo sapiens, UniProt Q92499); ATPase activity, inhibitor): > 50000 nM

CC(C)C[C@H](NC(=O)[C@@H](NC(=O)N[C@@H](Cc1ccccc1)C(=O)O)[C@@H]1CCN=C(N)N1)C(=O)N[C@H](C=O)Cc1ccccc1
IC50 (Cathepsin G (CTSG, Homo sapiens, UniProt P08311); enzyme activity, inhibitor): 4250 nM

COc1ncccc1-c1cnn2ccc(N3CCN(C(=O)OC(C)C)CC3)nc12
remaining binding (Serine/threonine-protein kinase mTOR (MTOR, Homo sapiens, UniProt P42345); binding, competition with immobilised ligand; 1 µM): 100%
